Measurements gathered from unrelated publications.
Every numbered part comes from another study and shows a few of its results, in no order. ± gives the spread as reported.
Chain of UniProt P07949 (whole entry, unmodified, looked up): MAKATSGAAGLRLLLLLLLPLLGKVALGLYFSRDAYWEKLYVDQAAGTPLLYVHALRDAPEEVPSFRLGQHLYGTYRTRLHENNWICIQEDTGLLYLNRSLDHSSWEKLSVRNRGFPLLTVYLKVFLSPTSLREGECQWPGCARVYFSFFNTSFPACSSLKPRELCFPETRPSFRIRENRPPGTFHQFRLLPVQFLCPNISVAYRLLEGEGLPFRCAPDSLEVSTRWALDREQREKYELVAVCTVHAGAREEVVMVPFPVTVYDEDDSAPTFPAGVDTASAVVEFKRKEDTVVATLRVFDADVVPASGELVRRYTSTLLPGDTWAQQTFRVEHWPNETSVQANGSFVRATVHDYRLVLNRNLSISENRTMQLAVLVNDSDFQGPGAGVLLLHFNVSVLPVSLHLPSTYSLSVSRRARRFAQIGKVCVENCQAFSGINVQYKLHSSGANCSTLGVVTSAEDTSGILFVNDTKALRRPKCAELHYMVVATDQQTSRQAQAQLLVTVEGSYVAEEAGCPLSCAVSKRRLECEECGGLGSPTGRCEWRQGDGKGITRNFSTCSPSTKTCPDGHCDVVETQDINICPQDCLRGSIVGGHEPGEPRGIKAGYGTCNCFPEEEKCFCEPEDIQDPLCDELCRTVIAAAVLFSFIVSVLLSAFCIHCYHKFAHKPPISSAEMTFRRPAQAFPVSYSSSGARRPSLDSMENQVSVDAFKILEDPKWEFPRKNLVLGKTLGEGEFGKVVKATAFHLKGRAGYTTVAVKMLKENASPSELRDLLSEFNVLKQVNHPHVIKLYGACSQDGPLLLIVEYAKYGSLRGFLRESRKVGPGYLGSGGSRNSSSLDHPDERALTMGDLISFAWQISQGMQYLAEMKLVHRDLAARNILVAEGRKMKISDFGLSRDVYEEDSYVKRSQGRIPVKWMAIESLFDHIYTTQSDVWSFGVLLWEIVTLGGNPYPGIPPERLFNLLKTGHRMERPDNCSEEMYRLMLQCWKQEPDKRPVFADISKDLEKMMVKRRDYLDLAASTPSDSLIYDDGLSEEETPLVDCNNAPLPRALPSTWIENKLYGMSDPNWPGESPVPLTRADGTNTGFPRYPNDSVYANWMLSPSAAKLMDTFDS
Chain of UniProt Q08881 (whole entry, looked up): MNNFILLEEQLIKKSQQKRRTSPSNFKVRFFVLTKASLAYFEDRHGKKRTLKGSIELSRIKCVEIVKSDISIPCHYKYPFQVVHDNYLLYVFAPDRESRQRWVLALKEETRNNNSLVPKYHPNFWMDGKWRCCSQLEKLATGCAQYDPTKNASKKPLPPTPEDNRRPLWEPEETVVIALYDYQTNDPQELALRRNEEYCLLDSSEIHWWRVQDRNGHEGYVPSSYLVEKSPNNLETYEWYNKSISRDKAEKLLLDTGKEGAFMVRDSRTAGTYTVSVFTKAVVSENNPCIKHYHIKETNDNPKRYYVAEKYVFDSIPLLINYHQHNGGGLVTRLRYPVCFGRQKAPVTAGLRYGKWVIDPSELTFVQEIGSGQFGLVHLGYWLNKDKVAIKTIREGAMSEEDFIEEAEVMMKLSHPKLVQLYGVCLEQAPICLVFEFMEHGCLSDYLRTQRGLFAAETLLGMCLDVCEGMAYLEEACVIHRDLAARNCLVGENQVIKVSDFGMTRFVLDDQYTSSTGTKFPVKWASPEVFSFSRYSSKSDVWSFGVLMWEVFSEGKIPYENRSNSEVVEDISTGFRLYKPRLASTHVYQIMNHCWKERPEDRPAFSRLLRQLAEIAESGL
Chain of UniProt Q14164 (whole entry, looked up): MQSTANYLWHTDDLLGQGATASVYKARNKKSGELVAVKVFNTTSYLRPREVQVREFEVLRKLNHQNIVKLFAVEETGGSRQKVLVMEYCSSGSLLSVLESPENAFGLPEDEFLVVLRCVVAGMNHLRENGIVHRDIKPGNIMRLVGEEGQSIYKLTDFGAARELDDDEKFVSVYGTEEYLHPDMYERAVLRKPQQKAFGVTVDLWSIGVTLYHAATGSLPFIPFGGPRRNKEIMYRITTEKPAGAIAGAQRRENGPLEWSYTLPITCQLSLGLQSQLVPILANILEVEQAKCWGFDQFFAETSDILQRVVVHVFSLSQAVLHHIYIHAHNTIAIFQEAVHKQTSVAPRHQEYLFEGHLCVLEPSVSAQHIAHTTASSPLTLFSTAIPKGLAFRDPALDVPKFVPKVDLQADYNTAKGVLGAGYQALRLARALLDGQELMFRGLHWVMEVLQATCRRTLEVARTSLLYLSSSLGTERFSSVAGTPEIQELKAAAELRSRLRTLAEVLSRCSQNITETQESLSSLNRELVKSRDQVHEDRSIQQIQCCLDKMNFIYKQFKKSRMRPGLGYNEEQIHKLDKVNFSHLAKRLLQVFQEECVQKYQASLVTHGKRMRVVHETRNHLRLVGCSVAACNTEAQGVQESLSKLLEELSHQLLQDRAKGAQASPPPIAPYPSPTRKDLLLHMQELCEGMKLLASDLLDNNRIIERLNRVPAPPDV
Chain of UniProt O43683 (whole entry, looked up): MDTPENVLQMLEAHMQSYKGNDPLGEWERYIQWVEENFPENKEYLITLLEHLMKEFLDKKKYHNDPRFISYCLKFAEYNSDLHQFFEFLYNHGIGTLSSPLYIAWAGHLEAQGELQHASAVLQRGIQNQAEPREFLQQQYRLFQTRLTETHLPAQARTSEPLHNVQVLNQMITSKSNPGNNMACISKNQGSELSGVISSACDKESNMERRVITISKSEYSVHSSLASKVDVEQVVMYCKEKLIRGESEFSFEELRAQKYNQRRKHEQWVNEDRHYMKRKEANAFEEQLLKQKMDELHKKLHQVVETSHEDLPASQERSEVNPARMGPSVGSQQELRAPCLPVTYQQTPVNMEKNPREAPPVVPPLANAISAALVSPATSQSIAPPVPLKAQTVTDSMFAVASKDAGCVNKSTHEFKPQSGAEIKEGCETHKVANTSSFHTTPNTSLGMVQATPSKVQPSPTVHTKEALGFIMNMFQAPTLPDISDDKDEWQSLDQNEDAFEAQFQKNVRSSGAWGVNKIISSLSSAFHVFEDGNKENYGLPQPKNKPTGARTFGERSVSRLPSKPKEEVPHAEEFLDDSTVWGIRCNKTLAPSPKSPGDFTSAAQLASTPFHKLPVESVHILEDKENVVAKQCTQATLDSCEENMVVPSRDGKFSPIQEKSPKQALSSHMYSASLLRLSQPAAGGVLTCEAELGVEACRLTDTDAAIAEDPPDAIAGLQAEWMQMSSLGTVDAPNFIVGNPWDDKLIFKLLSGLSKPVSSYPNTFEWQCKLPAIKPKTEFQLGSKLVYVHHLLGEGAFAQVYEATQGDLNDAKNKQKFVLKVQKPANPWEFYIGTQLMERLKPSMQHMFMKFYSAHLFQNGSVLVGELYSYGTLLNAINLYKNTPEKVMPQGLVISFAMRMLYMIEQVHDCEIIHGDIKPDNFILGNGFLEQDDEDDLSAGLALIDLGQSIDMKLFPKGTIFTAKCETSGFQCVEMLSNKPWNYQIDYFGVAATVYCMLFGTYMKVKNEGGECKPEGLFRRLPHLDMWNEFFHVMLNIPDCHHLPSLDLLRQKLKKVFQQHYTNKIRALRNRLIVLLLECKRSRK

Series 1
SMILES: COc1cc(-c2nc3ccc(C(=O)NCCCN(C)C)cc3n2C2CCC2)cc(OC)c1OC
Effect on: binding
Method: competition with immobilised ligand
Concentration: 1 µM
Measurement: remaining binding
Non-receptor tyrosine-protein kinase TYK2, JH1 (TYK2, Homo sapiens, UniProt P29597): 95%
STK32A (Homo sapiens, UniProt Q8WU08): 89%
ITK (Homo sapiens, UniProt Q08881): 83%
IKBKE (Homo sapiens, UniProt Q14164): 78%
HIPK2 (Homo sapiens, UniProt Q9H2X6): 93%
IRAK3 (Homo sapiens, UniProt Q9Y616): 98%
NIM1K (Homo sapiens, UniProt Q8IY84): 70%
PRKACB (Homo sapiens, UniProt P22694): 89%
CDK8 (Homo sapiens, UniProt P49336): 100%
ERBB3 (Homo sapiens, UniProt P21860): 55%
PIK3CA (Homo sapiens, UniProt P42336, H1047Y): 68%
PRKCE (Homo sapiens, UniProt Q02156): 100%
LRRK2 (Homo sapiens, UniProt Q5S007): 92%
Aurora kinase A (AURKA, Homo sapiens, UniProt O14965): 60%
PI4KB (Homo sapiens, UniProt Q9UBF8): 79%
IKBKB (Homo sapiens, UniProt O14920): 85%
NTRK2 (Homo sapiens, UniProt Q16620): 77%
BRSK2 (Homo sapiens, UniProt Q8IWQ3): 62%
ALK (Homo sapiens, UniProt Q9UM73): 98%
PIK3CG (Homo sapiens, UniProt P48736): 100%
TTK (Homo sapiens, UniProt P33981): 100%

Series 2
Structure (SMILES): Cc1ccc(O)c(C)c1-c1cnc2[nH]c(-c3cnc(N4CCC5(CC4)CC(CN4CCN(c6ccc(NC7CCC(=O)NC7=O)cc6F)CC4)C5)nc3)cc2c1C#N (centres unmarked)
Target: Membrane-associated tyrosine- and threonine-specific cdc2-inhibitory kinase (PKMYT1, Homo sapiens, UniProt Q99640)
Measurement: inhibition
Target sequence (Q99640 1-499): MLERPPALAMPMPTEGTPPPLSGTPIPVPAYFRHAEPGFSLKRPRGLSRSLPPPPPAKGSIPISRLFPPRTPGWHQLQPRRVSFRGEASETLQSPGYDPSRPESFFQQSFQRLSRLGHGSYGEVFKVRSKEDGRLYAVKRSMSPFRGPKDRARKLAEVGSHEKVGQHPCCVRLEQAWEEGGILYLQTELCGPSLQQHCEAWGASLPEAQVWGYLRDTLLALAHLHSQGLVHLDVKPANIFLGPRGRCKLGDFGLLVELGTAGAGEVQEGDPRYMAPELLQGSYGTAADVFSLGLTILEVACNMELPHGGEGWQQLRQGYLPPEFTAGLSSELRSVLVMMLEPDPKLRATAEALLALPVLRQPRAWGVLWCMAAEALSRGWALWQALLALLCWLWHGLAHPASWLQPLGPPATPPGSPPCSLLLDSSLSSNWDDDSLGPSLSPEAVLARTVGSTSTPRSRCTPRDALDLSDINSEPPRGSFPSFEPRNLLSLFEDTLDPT
cell-free assay, inhibitor, TR-FRET; 4.12 nM: 33.5%
0.000152 µM: -3.93%
0.3333 µM: 99.3%
cell-free assay, inhibitor, TR-FRET; 460 pM: -4.29%
cell-free assay, inhibitor, TR-FRET; 51 pM: -8.61%
5.1e-05 µM: -8.31%
0.1111 µM: 97.6%
cell-free assay, inhibitor, TR-FRET; 37.04 nM: 93.4%

Series 3
SMILES: C[C@@H]1CN(c2ccc(-c3cc(C(=O)NCCOCCOCCOCCOCCOCCOCCNC(=O)/C=C/c4[nH]cc(C(=O)N[C@@H](CC(N)=O)c5ccc(F)c(Cl)c5)c4-c4ccc(Cl)cc4F)ccc3F)cc2NC(=O)c2ccc(F)cc2C(F)(F)F)C[C@H](C)N1C
Effect on: thermal unfolding
Method: differential scanning fluorimetry
Concentration: 5.5 µM
Direction: higher = more unfolded
Measurement: SYPRO Orange fluorescence
DCAF1: DDB1- and CUL4-associated factor 1 (DCAF1, Homo sapiens, UniProt Q9Y4B6)
Chain of UniProt Q9Y4B6 (whole entry, looked up): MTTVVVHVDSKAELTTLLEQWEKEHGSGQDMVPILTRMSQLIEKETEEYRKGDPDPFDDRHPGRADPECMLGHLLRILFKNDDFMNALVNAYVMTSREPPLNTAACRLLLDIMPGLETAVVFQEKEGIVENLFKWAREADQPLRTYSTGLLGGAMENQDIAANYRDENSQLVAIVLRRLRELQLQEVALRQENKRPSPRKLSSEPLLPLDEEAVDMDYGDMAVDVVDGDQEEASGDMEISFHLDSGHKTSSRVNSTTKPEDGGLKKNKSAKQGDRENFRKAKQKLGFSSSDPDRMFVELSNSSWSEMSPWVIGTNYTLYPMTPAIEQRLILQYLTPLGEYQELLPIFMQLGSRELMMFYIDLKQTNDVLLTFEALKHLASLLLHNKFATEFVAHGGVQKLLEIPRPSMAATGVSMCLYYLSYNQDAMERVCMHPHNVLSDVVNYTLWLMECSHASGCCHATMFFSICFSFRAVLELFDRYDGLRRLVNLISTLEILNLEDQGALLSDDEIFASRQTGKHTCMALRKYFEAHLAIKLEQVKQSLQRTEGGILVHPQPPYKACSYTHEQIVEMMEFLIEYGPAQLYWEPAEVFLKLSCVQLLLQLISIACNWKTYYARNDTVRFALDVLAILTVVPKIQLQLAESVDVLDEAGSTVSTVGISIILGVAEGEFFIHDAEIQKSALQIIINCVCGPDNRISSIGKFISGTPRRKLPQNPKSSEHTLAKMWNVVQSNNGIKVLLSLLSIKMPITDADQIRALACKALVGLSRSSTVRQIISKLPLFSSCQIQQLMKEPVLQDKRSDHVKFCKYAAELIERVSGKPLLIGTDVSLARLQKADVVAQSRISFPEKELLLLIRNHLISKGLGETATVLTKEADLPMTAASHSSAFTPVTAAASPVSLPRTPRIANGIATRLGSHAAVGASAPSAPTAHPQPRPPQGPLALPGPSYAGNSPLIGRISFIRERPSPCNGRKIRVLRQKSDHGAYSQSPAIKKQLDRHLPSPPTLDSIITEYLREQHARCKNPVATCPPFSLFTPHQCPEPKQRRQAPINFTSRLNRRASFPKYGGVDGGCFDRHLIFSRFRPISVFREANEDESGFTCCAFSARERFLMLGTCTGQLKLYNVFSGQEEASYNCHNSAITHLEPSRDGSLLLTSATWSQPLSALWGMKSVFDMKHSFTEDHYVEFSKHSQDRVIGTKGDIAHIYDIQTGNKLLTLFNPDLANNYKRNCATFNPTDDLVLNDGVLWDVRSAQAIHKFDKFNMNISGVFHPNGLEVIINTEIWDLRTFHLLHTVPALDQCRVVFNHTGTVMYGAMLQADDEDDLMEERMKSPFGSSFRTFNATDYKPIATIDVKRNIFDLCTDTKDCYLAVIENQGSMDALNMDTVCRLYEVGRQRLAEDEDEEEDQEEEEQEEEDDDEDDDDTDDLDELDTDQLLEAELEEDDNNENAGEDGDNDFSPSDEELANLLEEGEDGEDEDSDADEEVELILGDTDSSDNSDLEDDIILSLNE
WDR5: WD repeat-containing protein 5 (WDR5, Homo sapiens, UniProt P61964)
DCAF1; 70.21 °C: 48100 a.u.
DCAF1; 76.21 °C: 42800 a.u.
WDR5; 30.8 °C: 13600 a.u.
WDR5; 38.2 °C: 13800 a.u.
WDR5; 90.81 °C: 53800 a.u.
WDR5; 43.4 °C: 14600 a.u.
WDR5; 71.21 °C: 32100 a.u.

Series 4
Structure (SMILES): CCN1/C(=C/C=C2\CCCC(/C=C/C3=[N+](CC)c4ccccc4C3(C)C)=C2NCCCCCCCCN2CCC(Nc3nc4ccccc4n3Cc3ccc(F)cc3)CC2)C(C)(C)c2ccccc21
Cell line: U-87 MG
Concentration: concentration not given
Relative to: DMSO
Measurement: log2 fold change
item: CRACR2B mRNA: -1.87
item: ARTN mRNA: -2.27
item: PDE5A mRNA: -0.838
item: HOPX mRNA: -1.87
item: ASNS mRNA: 1.76
item: TRIB3 mRNA: 2.32
item: PPP1R2 mRNA: 0.92
item: BAG1 mRNA: 0.858
item: STOML1 mRNA: -1.11
item: DAG1: -0.978
item: LPCAT4 mRNA: -1.2

Series 5
Structure (SMILES): CN(C1COC1)C(C)(C)/C=C(\C#N)C(=O)N1CCC[C@H]1Cn1nc(-c2ccc(Oc3ccccc3)cc2F)c2c(N)ncnc21
Effect on: enzyme activity
Measurement: IC50
ITK (Homo sapiens, UniProt Q08881); inhibitor: > 5000 nM
EGFR (Homo sapiens, UniProt P00533); inhibitor: 3200 nM
BTK (Homo sapiens, UniProt Q06187); preincubation 10 min: 2.6 ± 0.3 nM
TXK (Homo sapiens, UniProt P42681); inhibitor: 41 nM
JAK3 (Homo sapiens, UniProt P52333); inhibitor: > 5000 nM

Series 6
SMILES: O=C(Nc1ccccc1)Nc1cccc(Oc2ccc3nccn3n2)c1
Concentration: 1 µM
Measurement: remaining binding
MUSK (Homo sapiens, UniProt O15146); cell-free binding: 100%
PRKAA2 (Homo sapiens, UniProt P54646); binding: 100%
CHUK (Homo sapiens, UniProt O15111); binding: 93%
CSK (Homo sapiens, UniProt P41240); binding, competition with immobilised ligand: 100%
KIT (Homo sapiens, UniProt P10721, A829P); binding: 88%
Ribosomal protein S6 kinase alpha-5, C-terminal kinase domain (RPS6KA5, Homo sapiens, UniProt O75582); binding, competition with immobilised ligand: 100%
RET (Homo sapiens, UniProt P07949, V804M); binding: 100%
SRC (Homo sapiens, UniProt P12931); binding, competition with immobilised ligand: 100%
MAPKAPK5 (Homo sapiens, UniProt Q8IW41); binding: 100%
SGK2 (Homo sapiens, UniProt Q9HBY8); binding: 92%
MAP2K5 (Homo sapiens, UniProt Q13163); binding, competition with immobilised ligand: 63%
BUB1 (Homo sapiens, UniProt O43683); binding: 100%
SYK (Homo sapiens, UniProt P43405); binding, competition with immobilised ligand: 88%
FLT4 (Homo sapiens, UniProt P35916); cell-free binding: 33%
CAMK2G (Homo sapiens, UniProt Q13555); binding: 97%
ABL1 (Homo sapiens, UniProt P00519, T315I): 100%
JAK2 (Homo sapiens, UniProt O60674); cell-free binding; JH1 catalytic domain: 93%
MAP3K15 (Homo sapiens, UniProt Q6ZN16); binding: 100%
LIM domain kinase 1 (LIMK1, Homo sapiens, UniProt P53667); cell-free binding: 100%
RIPK4 (Homo sapiens, UniProt P57078); binding: 100%
Myosin-IIIa (MYO3A, Homo sapiens, UniProt Q8NEV4); binding: 100%
ACVR1 (Homo sapiens, UniProt Q04771); binding, competition with immobilised ligand: 100%

Series 7
SMILES: CC[C@@]1(c2cccc(-c3c(F)cncc3OC)c2)C2=C(Nc3n[nH]cc31)[C@H](F)C(C)(C)CC2=O (single isomer, unassigned)
Concentration: 1 µM
Measurement: remaining binding
RET (Homo sapiens, UniProt P07949, V804M); kinase binding, KINOMEscan; relative to: DMSO control: 100%
ROCK2 (Homo sapiens, UniProt O75116); binding, competition with immobilised ligand: 57%
EPHA1 (Homo sapiens, UniProt P21709); binding, competition with immobilised ligand: 92%
MAPKAPK2 (Homo sapiens, UniProt P49137); kinase binding, KINOMEscan; relative to: DMSO control: 80%
NEK2 (Homo sapiens, UniProt P51955); binding, competition with immobilised ligand: 93%
RET (Homo sapiens, UniProt P07949); binding, competition with immobilised ligand: 100%
FGFR2 (Homo sapiens, UniProt P21802); binding, competition with immobilised ligand: 100%
CSNK1E (Homo sapiens, UniProt P49674); binding, competition with immobilised ligand: 82%
EGFR (Homo sapiens, UniProt P00533, G719C); binding, competition with immobilised ligand: 100%
CDK4 (Homo sapiens, UniProt P11802); kinase binding, KINOMEscan; relative to: DMSO control: 44%
MAP3K3 (Homo sapiens, UniProt Q99759); kinase binding, KINOMEscan; relative to: DMSO control: 73%
MAP3K14 (Homo sapiens, UniProt Q99558); kinase binding, KINOMEscan; relative to: DMSO control: 60%
